Measurements collected from several papers.
“And” joins repeats or separate records; there may be more than shown. ± marks the error that the study gave.
Nuclear receptor subfamily 2 group C member 2 ligand-binding domain: Nuclear receptor subfamily 2 group C member 2, ligand-binding domain (Homo sapiens, UniProt P49116)
UniProt P49116, sequence (whole entry, looked up): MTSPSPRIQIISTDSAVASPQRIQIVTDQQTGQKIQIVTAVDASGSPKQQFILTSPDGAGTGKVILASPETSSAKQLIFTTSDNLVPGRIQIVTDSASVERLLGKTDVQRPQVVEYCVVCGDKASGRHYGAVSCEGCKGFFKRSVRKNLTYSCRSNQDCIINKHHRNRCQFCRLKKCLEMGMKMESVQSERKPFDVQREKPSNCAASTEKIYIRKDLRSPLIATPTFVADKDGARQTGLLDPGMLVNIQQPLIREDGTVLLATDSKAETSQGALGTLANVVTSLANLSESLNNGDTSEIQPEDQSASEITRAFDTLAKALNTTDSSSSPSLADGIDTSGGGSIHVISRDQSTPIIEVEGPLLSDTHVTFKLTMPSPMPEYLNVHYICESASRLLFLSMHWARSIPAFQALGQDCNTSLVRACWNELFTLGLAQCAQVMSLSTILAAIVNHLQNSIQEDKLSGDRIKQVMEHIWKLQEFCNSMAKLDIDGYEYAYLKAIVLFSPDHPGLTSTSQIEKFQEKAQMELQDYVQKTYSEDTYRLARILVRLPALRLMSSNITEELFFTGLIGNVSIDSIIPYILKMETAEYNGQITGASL
Pancreatic alpha-amylase: Pancreatic alpha-amylase (Homo sapiens, UniProt P04746)
UniProt P04746, sequence (whole entry, looked up): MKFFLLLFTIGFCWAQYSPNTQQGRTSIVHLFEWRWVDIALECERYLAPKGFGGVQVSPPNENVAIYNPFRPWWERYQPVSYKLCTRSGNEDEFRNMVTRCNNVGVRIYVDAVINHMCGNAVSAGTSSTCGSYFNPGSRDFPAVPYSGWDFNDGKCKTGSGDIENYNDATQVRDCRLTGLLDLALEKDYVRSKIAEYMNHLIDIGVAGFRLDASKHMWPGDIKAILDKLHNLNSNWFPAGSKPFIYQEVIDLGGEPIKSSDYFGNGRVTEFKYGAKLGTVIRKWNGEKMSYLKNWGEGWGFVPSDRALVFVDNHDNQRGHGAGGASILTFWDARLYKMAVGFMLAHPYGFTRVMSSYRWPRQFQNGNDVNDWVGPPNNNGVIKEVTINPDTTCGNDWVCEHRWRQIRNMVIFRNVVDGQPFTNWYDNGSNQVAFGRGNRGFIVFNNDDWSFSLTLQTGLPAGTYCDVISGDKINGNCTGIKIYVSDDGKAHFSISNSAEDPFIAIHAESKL
PIAS1: E3 SUMO-protein ligase PIAS1 (PIAS1, Homo sapiens, UniProt O75925)
UniProt O75925, sequence (whole entry, looked up): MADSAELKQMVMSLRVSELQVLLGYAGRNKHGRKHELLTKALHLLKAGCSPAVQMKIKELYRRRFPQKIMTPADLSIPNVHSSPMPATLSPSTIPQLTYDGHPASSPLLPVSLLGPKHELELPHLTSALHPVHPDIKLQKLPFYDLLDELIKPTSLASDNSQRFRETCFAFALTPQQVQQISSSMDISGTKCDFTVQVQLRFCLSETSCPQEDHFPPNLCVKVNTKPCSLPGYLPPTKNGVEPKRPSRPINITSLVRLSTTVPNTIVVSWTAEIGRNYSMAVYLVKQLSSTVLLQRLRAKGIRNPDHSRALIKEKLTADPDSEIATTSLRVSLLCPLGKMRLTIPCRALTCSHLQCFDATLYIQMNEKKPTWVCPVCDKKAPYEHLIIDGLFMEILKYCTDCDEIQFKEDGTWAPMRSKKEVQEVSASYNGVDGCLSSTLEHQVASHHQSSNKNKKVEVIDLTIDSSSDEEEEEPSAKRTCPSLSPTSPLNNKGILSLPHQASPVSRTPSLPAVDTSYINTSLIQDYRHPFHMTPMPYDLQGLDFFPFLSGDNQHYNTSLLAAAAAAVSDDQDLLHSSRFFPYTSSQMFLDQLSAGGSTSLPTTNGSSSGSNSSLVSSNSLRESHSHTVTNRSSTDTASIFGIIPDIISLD
CBK1: Serine/threonine-protein kinase CBK1 (CBK1, Candida albicans, UniProt Q5AP53)
UniProt P51575, sequence (whole entry, unmodified, looked up): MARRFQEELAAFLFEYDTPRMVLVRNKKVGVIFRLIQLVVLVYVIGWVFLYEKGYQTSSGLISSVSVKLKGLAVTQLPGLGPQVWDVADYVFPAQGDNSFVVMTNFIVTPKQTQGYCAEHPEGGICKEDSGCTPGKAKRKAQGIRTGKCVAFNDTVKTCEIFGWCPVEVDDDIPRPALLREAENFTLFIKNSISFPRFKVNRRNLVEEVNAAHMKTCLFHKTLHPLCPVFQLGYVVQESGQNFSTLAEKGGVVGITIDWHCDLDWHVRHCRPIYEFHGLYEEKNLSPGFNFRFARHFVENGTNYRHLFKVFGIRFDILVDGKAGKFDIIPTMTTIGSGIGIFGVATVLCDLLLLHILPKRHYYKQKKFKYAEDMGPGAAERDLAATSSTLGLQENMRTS
UniProt O14980, sequence (whole entry, looked up): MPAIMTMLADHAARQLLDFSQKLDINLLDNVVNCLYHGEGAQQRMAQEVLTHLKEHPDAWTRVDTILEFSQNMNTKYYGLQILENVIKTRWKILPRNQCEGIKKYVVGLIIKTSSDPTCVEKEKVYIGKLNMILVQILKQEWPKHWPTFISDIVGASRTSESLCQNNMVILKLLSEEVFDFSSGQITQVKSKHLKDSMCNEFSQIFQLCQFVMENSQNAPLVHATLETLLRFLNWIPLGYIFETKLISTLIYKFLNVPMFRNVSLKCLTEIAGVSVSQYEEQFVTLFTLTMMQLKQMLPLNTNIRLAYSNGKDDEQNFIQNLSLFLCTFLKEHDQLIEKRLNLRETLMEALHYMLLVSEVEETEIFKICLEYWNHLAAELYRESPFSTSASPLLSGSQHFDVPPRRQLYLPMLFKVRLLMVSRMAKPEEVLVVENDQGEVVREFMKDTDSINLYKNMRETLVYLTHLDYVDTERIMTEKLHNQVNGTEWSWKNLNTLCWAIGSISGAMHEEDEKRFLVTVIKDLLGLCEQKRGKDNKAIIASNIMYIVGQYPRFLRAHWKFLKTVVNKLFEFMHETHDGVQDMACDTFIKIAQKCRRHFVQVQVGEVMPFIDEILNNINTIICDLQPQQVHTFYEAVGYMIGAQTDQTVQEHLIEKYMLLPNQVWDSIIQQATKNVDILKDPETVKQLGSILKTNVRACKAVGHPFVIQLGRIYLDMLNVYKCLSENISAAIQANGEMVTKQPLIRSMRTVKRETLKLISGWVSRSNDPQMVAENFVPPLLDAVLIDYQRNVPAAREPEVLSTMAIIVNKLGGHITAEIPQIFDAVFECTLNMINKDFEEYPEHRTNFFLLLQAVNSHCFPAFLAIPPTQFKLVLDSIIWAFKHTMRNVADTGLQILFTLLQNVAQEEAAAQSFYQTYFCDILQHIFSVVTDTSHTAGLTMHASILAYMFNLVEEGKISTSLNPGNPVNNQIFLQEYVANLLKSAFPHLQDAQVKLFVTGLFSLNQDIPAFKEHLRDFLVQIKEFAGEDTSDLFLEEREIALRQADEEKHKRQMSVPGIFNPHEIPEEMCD
UniProt Q16774, sequence (whole entry, unmodified, looked up): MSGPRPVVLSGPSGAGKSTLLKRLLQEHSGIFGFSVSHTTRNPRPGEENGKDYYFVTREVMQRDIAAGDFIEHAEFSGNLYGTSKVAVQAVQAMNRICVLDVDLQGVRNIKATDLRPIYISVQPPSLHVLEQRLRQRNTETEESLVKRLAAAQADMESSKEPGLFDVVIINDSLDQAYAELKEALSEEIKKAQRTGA
UniProt P02911, sequence (whole entry, looked up): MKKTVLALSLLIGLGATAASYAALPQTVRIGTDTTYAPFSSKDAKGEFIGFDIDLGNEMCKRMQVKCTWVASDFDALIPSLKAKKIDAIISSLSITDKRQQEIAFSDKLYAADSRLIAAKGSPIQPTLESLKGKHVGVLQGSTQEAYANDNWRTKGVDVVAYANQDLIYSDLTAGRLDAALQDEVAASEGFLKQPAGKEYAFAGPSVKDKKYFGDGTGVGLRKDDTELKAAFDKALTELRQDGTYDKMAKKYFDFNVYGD
UniProt Q5AP53, sequence (whole entry, looked up): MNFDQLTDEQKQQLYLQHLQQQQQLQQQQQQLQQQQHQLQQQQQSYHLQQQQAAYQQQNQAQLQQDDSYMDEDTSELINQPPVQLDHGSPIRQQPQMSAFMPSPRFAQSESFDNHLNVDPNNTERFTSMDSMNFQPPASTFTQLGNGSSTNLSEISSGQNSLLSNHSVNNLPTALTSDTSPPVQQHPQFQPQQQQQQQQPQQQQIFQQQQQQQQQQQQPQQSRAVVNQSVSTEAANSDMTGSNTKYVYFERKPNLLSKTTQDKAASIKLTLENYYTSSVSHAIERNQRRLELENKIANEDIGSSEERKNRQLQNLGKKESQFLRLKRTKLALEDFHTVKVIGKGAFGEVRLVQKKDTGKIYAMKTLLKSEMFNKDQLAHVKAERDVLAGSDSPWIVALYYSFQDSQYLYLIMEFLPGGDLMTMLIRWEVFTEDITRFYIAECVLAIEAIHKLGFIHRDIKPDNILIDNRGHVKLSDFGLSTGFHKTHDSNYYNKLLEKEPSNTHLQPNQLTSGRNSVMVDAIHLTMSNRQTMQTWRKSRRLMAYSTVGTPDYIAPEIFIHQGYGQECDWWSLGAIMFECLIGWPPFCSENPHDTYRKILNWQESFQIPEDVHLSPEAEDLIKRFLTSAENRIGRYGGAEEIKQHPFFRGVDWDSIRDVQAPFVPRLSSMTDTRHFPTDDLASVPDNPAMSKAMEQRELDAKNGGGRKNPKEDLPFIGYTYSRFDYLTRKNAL
UniProt Q92947, sequence (whole entry, looked up): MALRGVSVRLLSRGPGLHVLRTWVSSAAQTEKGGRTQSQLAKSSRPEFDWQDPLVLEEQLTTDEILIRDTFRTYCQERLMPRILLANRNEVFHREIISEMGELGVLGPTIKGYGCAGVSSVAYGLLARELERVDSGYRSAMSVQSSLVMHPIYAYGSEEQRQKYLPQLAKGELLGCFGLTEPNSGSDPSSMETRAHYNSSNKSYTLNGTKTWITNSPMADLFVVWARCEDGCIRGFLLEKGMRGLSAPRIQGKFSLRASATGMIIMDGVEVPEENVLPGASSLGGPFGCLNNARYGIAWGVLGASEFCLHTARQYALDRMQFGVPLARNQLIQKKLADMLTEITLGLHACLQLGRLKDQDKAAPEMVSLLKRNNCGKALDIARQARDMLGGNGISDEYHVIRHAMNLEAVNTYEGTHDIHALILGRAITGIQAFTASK

Structure (SMILES)	target	test	test system	conditions	scale	measurement	result
COc1cc(-c2cc(C(C)=O)n3ccccc23)cc(OC)c1Cn1ccnc1	Bromodomain testis-specific protein, BD2 (BRDT, Homo sapiens, UniProt Q58F21)					ΔTm	4.9 °C
Cc1ccnc(OC[C@H]2CN(CC(=O)N3CCc4ccccc43)CCO2)c1	HTR4 (Homo sapiens, UniProt Q13639)	radioligand binding		concentration not given		inhibition	-0.2%
CN=C(NC)NCCC[C@H](NC(=O)[C@H](C)N)C(=O)N[C@H](C(=O)N[C@@H](CCCCN)C(=O)N[C@@H](CCC(N)=O)C(=O)N[C@H](C(=O)N[C@@H](C)C(=O)N[C@@H](CCCNC(=N)N)C(=O)N[C@@H](CCCCN)C(=O)N[C@@H](CO)C(=O)O)[C@@H](C)O)[C@@H](C)O	Transcriptional regulator ATRX (ATRX, Homo sapiens, UniProt P46100, F284Y/K251R)	isothermal titration calorimetry		pH 7.5, 25.0 °C		binding free energy	-6.87 kcal/mol
CNCC(=O)O	SLC6A9 (Homo sapiens, UniProt P48067)	[3H]glycine uptake, inhibitor	HEK293F cells	1000 µM	relative to: cells without inhibitor	remaining activity	80.5%
O=c1nc(SCc2cc(F)cc(C(F)(F)F)c2)nc(SCc2ccc3sccc3c2)[nH]1	TOP2A (Homo sapiens, UniProt P11388)	DNA cleavage		125 µM		mean linear DNA	6.74%
COc1cc(C(=O)NS(=O)(=O)c2ccccc2C)ccc1Cc1cn(C)c2ccc(NC(=O)OC3CCCC3)cc12	Nuclear receptor subfamily 2 group C member 2 ligand-binding domain	SPR imaging		600 nM		koff	1.63e-06 s⁻¹
CC1CCCN(C(=O)c2cc3ncccn3n2)C1 (centres unmarked)	S-phase kinase-associated protein 1 (SKP1, Homo sapiens, UniProt P63208)	binding, affinity selection mass spectrometry			relative to: other proteins in batch	log fold enrichment	-0.077
CC(C)C[C@@H]1NC(=O)[C@H](C(C)C)NC(=O)CNC(=O)[C@H](CC(N)=O)NC(=O)[C@@H]2CCCN2C(=O)[C@H](Cc2ccc(O)cc2)NC(=O)[C@H](CCCNC(=N)N)NC(=O)[C@H](Cc2ccccc2)NC(=O)[C@@H](NC(=O)[C@H](CCCCN)NC(=O)[C@H](C)NC(=O)[C@H](CO)NC(=O)[C@H](C)NC(=O)[C@@H](N)Cc2ccc(O)cc2)CSSC[C@@H](C(=O)N[C@H](C(N)=O)[C@@H](C)O)NC(=O)[C@H](C)NC1=O	Alpha-2-HS-glycoprotein, asialo (AHSG, Bos taurus, UniProt P12763)	binding, isothermal titration calorimetry		pH 7.0, 25 °C, together with: asialofetuin		-ΔG	5.71 kcal/mol
O=C1OC(c2ccccc2)=N/C1=C\c1cccc(O)c1	Pancreatic alpha-amylase	inhibitor, Lineweaver-Burk		100 ppm, together with: starch substrate		Km	1380 µM
COc1cc(F)ccc1-c1ncnc(Nc2cccc(C[S@](C)(=N)=O)c2)n1	TSSK1B (Homo sapiens, UniProt Q9BXA7)	kinase activity		10 µM, together with: 10 µM ATP		remaining activity	96%
Nc1ncnc2c1ncn2[C@@H]1O[C@H](C[C@@H](N)CC[C@H](N)C(=O)O)[C@@H](O)[C@H]1O	PRMT5/MEP50 complex (Homo sapiens, UniProt O14744+Q9BQA1)	RIOK1 PBM peptide binding, fluorescence polarization		30 µM, together with: fluorescent RIOK1 PBM peptide		PBM peptide binding	no effect
Nc1ncnc2c1ncn2[C@@H]1O[C@H](COP(=O)(O)CP(=O)(O)OP(=O)(O)O)[C@@H](O)[C@H]1O	P2X purinoceptor 1 (P2RX1, Homo sapiens, UniProt P51575, S286A)	saturation binding	HEK293	103 nM		specific binding	5000 CCPM and 11500 CCPM and 5560 CCPM
C=CC(=O)N1CCN(c2nc(OC[C@@H]3CCCN3C)nc3c(F)c(-c4nc(N)cc(C)c4C(F)(F)F)c(Cl)cc23)[C@@H](C)C1	GTPase KRas, GDP-bound (KRAS, Homo sapiens, UniProt P01116, Q61H)	SPR				dissociation rate constant koff	0.106 ± 0.006 s⁻¹
CC1CC(OC(=O)C(O)c2ccccc2)CC(C)(C)C1 (centres unmarked)	Nuclear receptor subfamily 2 group C member 2 ligand-binding domain	SPR imaging		600 nM		koff	4.19e-06 s⁻¹
C[C@@H](c1ccc(-n2cnc3c(N)ncnc32)cc1)N1CCc2nn(C)c(Cc3ccccc3)c2C1=O	CDK14 (Homo sapiens, UniProt O94921)	KINOMEscan		0.1 µM	relative to: DMSO control	remaining binding	100%
Cc1cccc(N2CC(C(=O)O)CC2=O)c1 (centres unmarked)	PIAS1	binding, affinity selection mass spectrometry			relative to: other proteins in batch	log fold enrichment	-0.0238
c1ccc(-c2n[nH]cc2-c2ccnc3ccccc23)nc1	CBK1	kinase binding, competitor, MIB/MS competition, refers to: CBK1	Candida albicans cell lysate	10 µM	relative to: DMSO	log2 fold change	1.56
C=CC(=O)N1CCC(COCC(=O)N2CCN(c3nc(-c4cnc(N)nc4C(F)F)nc(N4CCOC[C@@H]4C)n3)CC2)CC1	EGFR (Homo sapiens, UniProt P00533, G719C)	KINOMEscan		1 µM	relative to: DMSO control	remaining binding	98%
CCCN[C@H]1CCc2nc(N)sc2C1	Nuclear receptor subfamily 2 group C member 2 ligand-binding domain	binding				koff	5.95e-05 s⁻¹
CC[S+]([O-])c1nc(-c2ccccc2)cc(C(F)(F)F)n1 (centres unmarked)	Exportin-1 (XPO1, Homo sapiens, UniProt O14980)	nuclear export, high content imaging	HeLa Kyoto reporter	0.158 µM, 2 h		cells with nuclear reporter	1.68% and 1.79% and 1.83%
N[C@H](Cc1ccccc1)C(=O)O	PAL1 (Petroselinum crispum, UniProt P24481, Y110F)	binding, ITC				-TΔS	23 kcal/mol
Nc1nc2c(ncn2[C@@H]2O[C@H](COP(=O)(O)OP(=O)(O)O)[C@@H](O)[C@H]2O)c(=O)[nH]1	GUK1 (Homo sapiens, UniProt Q16774, R137A)	binding, ITC				ΔH	-8.59 ± 0.4 kcal/mol

Structure (SMILES)	target	test	test system	conditions	scale	measurement	result
COc1cc(NC(=O)c2ccccn2)ccc1/N=N/c1ccccc1Cl	GRM7 (Homo sapiens, UniProt Q14831)	positive allosteric modulator, IP accumulation	HEK293	30 µM, in the dark, together with: low-dose orthosteric agonist		activation	13.9%
O=C1OC(c2ccccc2)=N/C1=C\c1ccccc1O	Pancreatic alpha-amylase	inhibitor, Lineweaver-Burk		300 ppm, together with: starch substrate		Vmax	0.051 mg/mL/min
CN(CCCCNC(=O)c1cc2ccccc2[nH]1)[C@@H]1Cc2cccc3[nH]c(=O)n(c23)C1	HTR1A (Homo sapiens, UniProt P08908)	binding		together with: [3H]8-OH-DPAT		Hill coefficient	-0.63 ± 0.07
COc1ccc([C@H]2CNC(=O)C2)cc1OC1CCCC1	Nuclear receptor subfamily 2 group C member 2 ligand-binding domain	SPR imaging		600 nM		koff	3.3e-08 s⁻¹
C=CC(=O)N1CCC[C@@H](n2nc(-c3ccc(Oc4ccccc4)cc3)c3c(N)ncnc32)C1	Glutaryl-CoA dehydrogenase, mitochondrial (Homo sapiens, UniProt Q92947)			10 µM		remaining activity	50.6%
Nc1ncnc2c1ncn2[C@@H]1O[C@H](COP(=O)(O)OP(=O)(O)O)[C@@H](O)[C@H]1O	Cell cycle histidine kinase CckA, CA domain (Caulobacter vibrioides, UniProt Q9X688)	binding, ITC		25 °C, together with: without c-di-GMP		-TΔS	0.8 kcal/mol
CC[C@@H]1[C@H](F)C(=O)N[C@@H]1COc1nccc2cc(C(N)=O)c(OC)cc12	MARK2 (Homo sapiens, UniProt Q7KZI7)	ATP-site probe binding, ActivX profiling	THP-1 cell lysate	0.2 mM, Lys1 site		inhibition	9.9%
O=C(NC1CCC1)c1ccc2nc(-c3cccc(NS(=O)(=O)NCCN4CCCCC4)c3)cn2c1	ALK (Homo sapiens, UniProt Q9UM73, L1196M)	enzyme activity		10 µM		remaining activity	86%
Oc1ccc([C@@H]2c3c(O)cc(O)cc3[C@@H]3c4c(cc(O)c5c4[C@@H]2[C@H](c2ccc(O)cc2)[C@H]5c2cc(O)cc4c2[C@@H](c2cc(O)cc(O)c2)[C@H](c2ccc(O)cc2)O4)O[C@H]3c2ccc(O)cc2)cc1	Pancreatic alpha-amylase	enzyme activity, inhibitor				cooperativity factor alpha	10.2
CC[C@H](C)[C@@H]1NC(=O)[C@H]([C@@H](C)O)NC(=O)[C@@H]2CCCN2C(=O)[C@H](CC(C)C)NC(=O)[C@H](Cc2ccc(O)cc2)NC(=O)CSC[C@@H](C(N)=O)NC(=O)[C@H](CC(C)C)NC(=O)[C@@H]2CCCN2C(=O)[C@H](Cc2c[nH]cn2)NC(=O)[C@H](Cc2c[nH]c3ccccc23)NC(=O)[C@H](CC(C)C)NC(=O)[C@H](Cc2c[nH]cn2)NC(=O)CNC(=O)[C@H](C(C)C)NC(=O)CNC(=O)[C@H]([C@@H](C)O)NC1=O	VPS35/VPS29 (Homo sapiens, UniProt Q96QK1+Q9UBQ0)	binding, ITC		25 °C, heterodimer		-TΔS	2.1 ± 1.1 kcal/mol
Cc1cc(-c2ccnc3[nH]cc(F)c23)cc(F)c1[C@@]1(O)[C@H](C)CN(C2CCS(=O)(=O)CC2)C[C@@H]1C	AKT2 and AKT3	ATP probe binding, KiNativ, refers to: ATP loop	HEK293T cell lysate	0.1 µM		inhibition	15.3%
O=C(COP(=O)(O)O)[C@@H](O)[C@H](O)[C@H](O)COP(=O)(O)O	Small ribosomal subunit protein uS11 (Homo sapiens, UniProt P62263)	thermal proteome profiling, refers to: RPS14	HepG2 cell lysate	concentration not given, 57 over 37 °C, mean	relative to: compound over control	thermal stability ratio	0.662
CNC1=NS(=O)(=O)c2ccccc21	PKLR (Homo sapiens, UniProt P30613)	enzyme activity, activator		10 µM		activity	inactive
N=C(N)NCCC[C@H](N)C(=O)O	argT (Salmonella enterica, UniProt P02911)	binding, isothermal titration calorimetry		two-sets-of-sites model, site 2, mixture with SAR11_1210		Ka	1.02e+08 M⁻¹ and 9.55e+07 M⁻¹
C[C@@H]1C/C=C/C=C/C=C/C=C/[C@H](O[C@@H]2O[C@H](C)[C@@H](O)[C@H](N)[C@@H]2O)C[C@@H]2O[C@](O)(C[C@@H](O)C[C@H]3O[C@@H]3/C=C/C(=O)O1)C[C@H](O)[C@H]2C(=O)O	Nuclear receptor subfamily 2 group C member 2 ligand-binding domain	SPR imaging		600 nM		koff	4.2e-05 s⁻¹
Nc1nc2c(ncn2[C@@H]2O[C@H](COP(=O)(O)O)[C@@H](O)[C@H]2O)c(=O)[nH]1	GUK1 (Homo sapiens, UniProt Q16774, R148A)	enzyme activity, NADH-coupled		7.812 µM		reaction rate	-0.405 s⁻¹ and 1.88 s⁻¹ and 0.878 s⁻¹
c1coc(-c2n[nH]cc2-c2ccnc3ccccc23)c1	CBK1	kinase binding, MIB/MS competition	Candida albicans lysate	10 µM	relative to: DMSO, negative = stronger binding	log2 fold change	-0.16
Oc1ccc(/C=C/c2cc(O)cc(O)c2)cc1	O-methyltransferase (Sorghum bicolor, UniProt A0A1B6PFV1)	ITC		endothermic site, two-site model, together with: SFG		-T∆S	-10.9 kcal/mol
COCCC(=O)N1CCC(Oc2ccccc2)C1 (centres unmarked)	PIAS1	binding, affinity selection mass spectrometry			relative to: other proteins in batch	log fold enrichment	0.0516
Clc1cccc(OC[C@H]2CN(CCN3CCc4ccccc43)CCO2)c1	DRD5 (Homo sapiens, UniProt P21918)	radioligand binding		concentration not given, together with: [3H]SCH23390		inhibition	-4.8%
NCCCC(=O)O	SLC6A6 (Homo sapiens, UniProt P31641, G62A)	binding, microscale thermophoresis		3.91 µM, room temperature, together with: 50 nM labelled protein	higher = more binding	normalised MST signal	-0.0041
CCCC[C@H]1CN(c2cccc(OC(F)(F)F)c2)C(=O)CN1Cc1cncn1Cc1ccc(C#N)c(Oc2ccccc2)c1	Cryptococcus neoformans farnesyltransferase	enzyme activity, inhibitor, fluorescence		together with: 1 µM FPP, 0.5 µM dansylated peptide		IC50	150 ± 60 nM

A few entries again:
Structure (SMILES)	target	test	test system	conditions	scale	measurement	result
N=C(N)NCCC[C@H](N)C(=O)O	argT (Salmonella enterica, UniProt P02911)	binding, isothermal titration calorimetry		two-sets-of-sites model, site 2, mixture with SAR11_1210		Ka	1.02e+08 M⁻¹ and 9.55e+07 M⁻¹
C[C@@H]1C/C=C/C=C/C=C/C=C/[C@H](O[C@@H]2O[C@H](C)[C@@H](O)[C@H](N)[C@@H]2O)C[C@@H]2O[C@](O)(C[C@@H](O)C[C@H]3O[C@@H]3/C=C/C(=O)O1)C[C@H](O)[C@H]2C(=O)O	Nuclear receptor subfamily 2 group C member 2 ligand-binding domain	SPR imaging		600 nM		koff	4.2e-05 s⁻¹
Nc1nc2c(ncn2[C@@H]2O[C@H](COP(=O)(O)O)[C@@H](O)[C@H]2O)c(=O)[nH]1	GUK1 (Homo sapiens, UniProt Q16774, R148A)	enzyme activity, NADH-coupled		7.812 µM		reaction rate	-0.405 s⁻¹ and 1.88 s⁻¹ and 0.878 s⁻¹
